Measurements collected from several papers.
Each numbered part is a random draw from the data of one study; scales do not carry over between parts.

Block 1
Target: Sal-like protein 4, full length isoform B (SALL4, Homo sapiens, UniProt Q9UJQ4-2, residues 1-616)
Method: universal PBM
Molecule type: double-stranded DNA, one strand shown
Sample: in vitro
Concentration: not given
Notes: 8-mer, flanks averaged, mean of replicates
Direction: higher = stronger binding
Target sequence (chain): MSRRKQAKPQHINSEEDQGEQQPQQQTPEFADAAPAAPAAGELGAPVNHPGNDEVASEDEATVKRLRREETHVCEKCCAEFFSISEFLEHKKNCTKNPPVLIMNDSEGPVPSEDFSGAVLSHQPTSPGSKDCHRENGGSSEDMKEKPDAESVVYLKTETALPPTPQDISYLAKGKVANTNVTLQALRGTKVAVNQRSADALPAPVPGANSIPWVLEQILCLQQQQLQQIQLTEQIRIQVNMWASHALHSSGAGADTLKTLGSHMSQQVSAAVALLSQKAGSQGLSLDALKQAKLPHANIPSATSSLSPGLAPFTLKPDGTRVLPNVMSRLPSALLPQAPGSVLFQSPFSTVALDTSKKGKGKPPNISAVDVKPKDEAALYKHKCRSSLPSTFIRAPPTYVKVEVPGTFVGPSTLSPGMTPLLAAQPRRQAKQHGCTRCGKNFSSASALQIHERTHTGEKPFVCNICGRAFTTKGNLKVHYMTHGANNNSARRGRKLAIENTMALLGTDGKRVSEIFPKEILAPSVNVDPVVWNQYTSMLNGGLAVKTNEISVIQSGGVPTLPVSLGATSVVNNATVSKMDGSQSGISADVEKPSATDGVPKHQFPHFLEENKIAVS
Strand	E-score
AAGTCACC	-0.0989
ATACGAAA	0.202
TCTTTGAA	0.11
CACTAGAC	-0.0246
CCATTCGG	-0.116
CCGTTTGA	-0.216
CTTGAAAG	0.0279
ATGCAATG	0.00403
GGGCATAC	-0.0183
AACCCCCG	-0.221
GCCCAAGA	-0.206
ACTTCTCA	0.0517
ATATTCGG	0.232
ACGGCATA	0.0999
GCACTCGC	-0.156
GGCCCCCC	-0.386
GACATTCA	0.112
GTGGGAAC	-0.227
AACGTCCC	-0.106
AGTATAGC	0.0861

Block 2
Target: RNA binding protein fox-1 homolog 2, RRM domain, GST-SBP tag (RBFOX2, Homo sapiens, UniProt O43251-10, residues 100-194)
Method: RNA Bind-n-Seq
Molecule type: RNA
Sample: in vitro
Concentration: 365 nM
Notes: natural RNA segment, single round, ends assumed
Reference: no-protein control
Direction: higher = stronger binding
Target sequence (chain): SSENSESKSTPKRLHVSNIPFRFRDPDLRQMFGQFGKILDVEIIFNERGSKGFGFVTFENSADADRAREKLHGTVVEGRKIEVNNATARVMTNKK
Strand	RBNS enrichment (R)
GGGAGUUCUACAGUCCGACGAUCAGGAAAGAGGUAGGAGAGGCCGUGGAAAGCUUGUGUCCAGACGUCACUCCGGACAGUCCGACUUCCGUGUGGAAUGUCAGUCAGUCGGCUAGAGGAGUGGCAUCUGGAGCUGGAAUUCUCGGGUGCCAA	2.82
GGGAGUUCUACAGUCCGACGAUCUGGUAAACAUGUGAAGUCCUUUGGCUUAGUCAUACUUCAUAACUUUUGAACGUUGGGUUUUUUGUUGGAAGAAACUUGGAUGAAUCUGUCAUGUCAUUAACAGAACUGAAUGGAAUUCUCGGGUGCCAA	0.501
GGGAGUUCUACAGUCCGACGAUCGACAUUUAUUUUUCAUUUAGUUUGAUUAUUCAGUGUCACUGGCGACACGUAGCAGCUUAGACUAAGGCCAUUAUUGUACUUGCCUUAUUAGAGUGUCUUUCCACGGAGCCUGGAAUUCUCGGGUGCCAA	0.338
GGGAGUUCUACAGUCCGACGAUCGCAGAUUUCGGAAAUUGGCAAGCUACGGGAUUCCUUCCUGAAAGAUCAACUGUGUCUUAAGGCUCUCCAGCCUAUGCAUACUGUAUCCUGCUUCAGACUUAGGUACAAUUUGGAAUUCUCGGGUGCCAA	0.441
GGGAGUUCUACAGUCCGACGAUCAGCCACGUGGGCAUCCACUCCUUUUCCUGCAAGAGAUGAUGGUUCCAUUGCUCUUGGCUUCAUGGUGUUCCUGGAAGGCAGAUGAGCUGGUCAUUUCGCCUGGGACUCGGUGGAAUUCUCGGGUGCCAA	0.501
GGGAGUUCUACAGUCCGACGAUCCCAAGUGAUAACACUGCUUUCUUAUACACUGGGAUCAUUGUCACUUGAAAAAAAAAACAUUAUUGUGGUUGUGGGAGAAAGCUCUAGAUCUGUGCCAUAAUAGAUAUGCAUGGAAUUCUCGGGUGCCAA	3.78
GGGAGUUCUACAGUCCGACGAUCGUGACAGAACUUGAUUAUUUCAUCUUUUCCCACAAUUGUGCUUUAUUGGAUGUGAUGUUUCUUGCAUUCAUGUAAAUUGGAUGCAAUGUUUUCAAAUAAAUGUAGAUCUUUGGAAUUCUCGGGUGCCAA	0.395
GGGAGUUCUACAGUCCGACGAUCGGGUGACGUGAUGAGAGGUUUGAGAAAUGGGUGAAAUGAAAUGGGGGAUAUGUAGGUCAAAUCAAAUUAAAGAUGAUUUUUUUAAUGUGAAUAAAGUUAUGUUCUGAUAGUGGAAUUCUCGGGUGCCAA	3.1

Block 3
Target: Histone acetyltransferase KAT6A, winged helix 2, GST fusion (KAT6A, Homo sapiens, UniProt Q92794, residues 85-181)
Method: protein binding microarray
Molecule type: double-stranded DNA, one strand shown
Sample: in vitro
Concentration: not given
Notes: 8-mer, flanks averaged, mean of 2 arrays, mostly near background
Reference: not given
Direction: higher = stronger binding
Construct (chain): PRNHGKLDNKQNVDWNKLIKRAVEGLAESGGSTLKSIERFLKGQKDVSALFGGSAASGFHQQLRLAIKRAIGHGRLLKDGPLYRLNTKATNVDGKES
Strand	E-score
CCGCCTAG	0.144
CTTACCCA	0.0287
CAAACTAG	-0.029
ACCCTCGT	0.132
AACCCCCC	-0.338
ATTGCGGA	0.0658
AGACCCTC	-0.0391
ATCAATAC	-0.108
GAGCGAGC	0.208
AACAAGAT	0.0413
ACTAAGCG	-0.115
AGTCAGCG	-0.272
AACGTCAG	-0.199
CAGCCAAG	-0.0281
TCAGGAAA	0.0311
AAGAAACA	0.0897
ACTACTCT	-0.148
CACATGTA	-0.15
CCTTATTC	-0.169
GTGAGCAC	0.0721
ACAATGGG	-0.143
GTGGCTAA	0.106
AACAGCTC	0.0557
GACCGAAA	0.141
GGCACCAC	0.0608

Block 4
Target: Interferon regulatory factor 7, full length, phosphomimetic (IRF7, Homo sapiens, UniProt Q92985, residues 1-503, S101K/S471D/S472D/S475D/S476D/S477D/S483D/S484D/S487D)
Method: protein-binding microarray
Molecule type: double-stranded DNA, one strand shown
Sample: in vitro
Concentration: 250 nM
Notes: 60-bp whole probe
Added: salmon DNA 0.4 mg/ml
Reference: random background probes
Direction: higher = stronger binding
Constant ends, left off below: GCCTAGCAC … GTCTTGATTCGCTTGACGCTGCTG
Target sequence (chain): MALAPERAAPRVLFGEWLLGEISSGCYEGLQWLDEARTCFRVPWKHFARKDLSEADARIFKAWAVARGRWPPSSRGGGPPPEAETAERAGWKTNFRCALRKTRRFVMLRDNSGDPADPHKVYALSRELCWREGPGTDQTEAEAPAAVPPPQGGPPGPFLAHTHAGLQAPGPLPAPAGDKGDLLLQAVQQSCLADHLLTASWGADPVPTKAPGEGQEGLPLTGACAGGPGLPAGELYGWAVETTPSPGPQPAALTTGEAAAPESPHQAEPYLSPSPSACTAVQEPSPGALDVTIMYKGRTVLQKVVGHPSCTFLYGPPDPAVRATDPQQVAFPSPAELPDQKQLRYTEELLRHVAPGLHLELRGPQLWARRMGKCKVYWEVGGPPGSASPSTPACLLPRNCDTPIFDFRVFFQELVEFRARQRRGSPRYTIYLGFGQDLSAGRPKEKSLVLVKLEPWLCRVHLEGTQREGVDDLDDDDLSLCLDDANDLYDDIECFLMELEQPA
Strand	log fluorescence
CGTCATTTCACAGTTAACCAGTGCTAG	0.693 z-score
TTCGGACTGGGTATCGGTTAGTGCTAG	0.223 z-score
CCTCCCCTTGCTTTCCAATTGTGCTAG	0.0557 z-score
TTAGGTCTCGGACTGGGTAAGTGCTAG	0.387 z-score
AGTATGAGTTGCCCTTTCCCGTGCTAG	0.122 z-score
TTAGGTCTCATTCTCCTTTAGTGCTAG	1.26 z-score
TCAGTGCTCCTTTTAATACTGTGCTAG	-0.00451 z-score
GACGGACTGGACTTCCGGGACGTGCTA	-0.856 z-score
TTAGAACTGGGGACTGGCTTAGTGCTA	-0.322 z-score
GACGGTATCGGAGTGGGGACGTGCTAG	-0.401 z-score
AAGCTTCTGGTCTTCTGGACGTGCTAG	-0.325 z-score
TAAGAACTGAGACTGGATTAGTGCTAG	0.116 z-score
ACCATTGTGGTTTTCATTATGTGCTAG	-0.146 z-score
TTAGGACTGGGGTATCGGATAGTGCTA	-0.363 z-score
GACGGTCTCGGCCTCGGGACGTGCTAG	-0.196 z-score
TTTTTTTTCTAACTAAAAATGTGCTAG	1.3 z-score
TCATTTTAAGTTCTCTGACTGTGCTAG	1.09 z-score
